Measured values of several laboratories.
Parts stem from different laboratories: compare values within a part only.
Sequence of UniProt Q12851 (whole entry, looked up): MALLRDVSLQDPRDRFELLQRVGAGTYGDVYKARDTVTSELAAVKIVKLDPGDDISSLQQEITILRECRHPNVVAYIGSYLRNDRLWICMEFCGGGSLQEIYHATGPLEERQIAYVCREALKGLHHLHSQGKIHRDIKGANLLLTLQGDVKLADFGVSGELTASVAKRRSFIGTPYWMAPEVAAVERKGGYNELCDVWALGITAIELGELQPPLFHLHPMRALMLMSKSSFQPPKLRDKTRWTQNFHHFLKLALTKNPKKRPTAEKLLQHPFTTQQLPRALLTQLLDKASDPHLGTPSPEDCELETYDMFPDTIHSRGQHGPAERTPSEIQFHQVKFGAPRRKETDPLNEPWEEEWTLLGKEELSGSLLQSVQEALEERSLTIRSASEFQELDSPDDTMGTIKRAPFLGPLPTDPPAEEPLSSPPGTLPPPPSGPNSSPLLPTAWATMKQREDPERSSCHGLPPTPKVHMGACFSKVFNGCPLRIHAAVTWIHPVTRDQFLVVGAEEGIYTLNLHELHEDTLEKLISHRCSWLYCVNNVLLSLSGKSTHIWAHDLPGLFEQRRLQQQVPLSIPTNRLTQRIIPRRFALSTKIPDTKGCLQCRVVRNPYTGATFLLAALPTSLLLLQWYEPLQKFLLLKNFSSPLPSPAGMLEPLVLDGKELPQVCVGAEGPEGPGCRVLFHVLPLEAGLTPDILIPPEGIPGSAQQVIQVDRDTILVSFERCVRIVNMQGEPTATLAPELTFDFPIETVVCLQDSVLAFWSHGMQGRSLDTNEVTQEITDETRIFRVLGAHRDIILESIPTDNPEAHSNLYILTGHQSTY
Sequence of UniProt P22607 (whole entry, looked up): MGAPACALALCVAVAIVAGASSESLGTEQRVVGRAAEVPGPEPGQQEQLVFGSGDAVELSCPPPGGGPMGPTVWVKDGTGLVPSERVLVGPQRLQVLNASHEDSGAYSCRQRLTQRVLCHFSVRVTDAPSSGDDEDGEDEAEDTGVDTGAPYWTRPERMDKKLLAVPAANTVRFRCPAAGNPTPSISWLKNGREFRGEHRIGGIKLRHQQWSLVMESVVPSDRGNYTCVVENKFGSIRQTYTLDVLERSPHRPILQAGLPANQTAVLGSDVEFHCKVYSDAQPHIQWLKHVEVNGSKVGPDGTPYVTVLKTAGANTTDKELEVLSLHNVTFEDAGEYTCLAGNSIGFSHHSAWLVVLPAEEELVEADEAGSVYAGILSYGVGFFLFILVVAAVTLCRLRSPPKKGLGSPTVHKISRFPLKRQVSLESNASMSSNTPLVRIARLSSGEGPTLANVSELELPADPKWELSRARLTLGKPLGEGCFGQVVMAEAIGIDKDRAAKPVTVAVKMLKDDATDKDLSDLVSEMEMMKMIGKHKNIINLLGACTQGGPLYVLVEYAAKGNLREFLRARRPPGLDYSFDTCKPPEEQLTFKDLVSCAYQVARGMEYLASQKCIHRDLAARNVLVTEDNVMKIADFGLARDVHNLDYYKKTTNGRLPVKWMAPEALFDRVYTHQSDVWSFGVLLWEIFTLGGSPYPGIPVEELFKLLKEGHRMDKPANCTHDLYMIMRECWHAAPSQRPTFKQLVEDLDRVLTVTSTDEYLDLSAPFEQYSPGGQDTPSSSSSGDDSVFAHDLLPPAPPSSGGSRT
Sequence of UniProt P42684 (whole entry, looked up): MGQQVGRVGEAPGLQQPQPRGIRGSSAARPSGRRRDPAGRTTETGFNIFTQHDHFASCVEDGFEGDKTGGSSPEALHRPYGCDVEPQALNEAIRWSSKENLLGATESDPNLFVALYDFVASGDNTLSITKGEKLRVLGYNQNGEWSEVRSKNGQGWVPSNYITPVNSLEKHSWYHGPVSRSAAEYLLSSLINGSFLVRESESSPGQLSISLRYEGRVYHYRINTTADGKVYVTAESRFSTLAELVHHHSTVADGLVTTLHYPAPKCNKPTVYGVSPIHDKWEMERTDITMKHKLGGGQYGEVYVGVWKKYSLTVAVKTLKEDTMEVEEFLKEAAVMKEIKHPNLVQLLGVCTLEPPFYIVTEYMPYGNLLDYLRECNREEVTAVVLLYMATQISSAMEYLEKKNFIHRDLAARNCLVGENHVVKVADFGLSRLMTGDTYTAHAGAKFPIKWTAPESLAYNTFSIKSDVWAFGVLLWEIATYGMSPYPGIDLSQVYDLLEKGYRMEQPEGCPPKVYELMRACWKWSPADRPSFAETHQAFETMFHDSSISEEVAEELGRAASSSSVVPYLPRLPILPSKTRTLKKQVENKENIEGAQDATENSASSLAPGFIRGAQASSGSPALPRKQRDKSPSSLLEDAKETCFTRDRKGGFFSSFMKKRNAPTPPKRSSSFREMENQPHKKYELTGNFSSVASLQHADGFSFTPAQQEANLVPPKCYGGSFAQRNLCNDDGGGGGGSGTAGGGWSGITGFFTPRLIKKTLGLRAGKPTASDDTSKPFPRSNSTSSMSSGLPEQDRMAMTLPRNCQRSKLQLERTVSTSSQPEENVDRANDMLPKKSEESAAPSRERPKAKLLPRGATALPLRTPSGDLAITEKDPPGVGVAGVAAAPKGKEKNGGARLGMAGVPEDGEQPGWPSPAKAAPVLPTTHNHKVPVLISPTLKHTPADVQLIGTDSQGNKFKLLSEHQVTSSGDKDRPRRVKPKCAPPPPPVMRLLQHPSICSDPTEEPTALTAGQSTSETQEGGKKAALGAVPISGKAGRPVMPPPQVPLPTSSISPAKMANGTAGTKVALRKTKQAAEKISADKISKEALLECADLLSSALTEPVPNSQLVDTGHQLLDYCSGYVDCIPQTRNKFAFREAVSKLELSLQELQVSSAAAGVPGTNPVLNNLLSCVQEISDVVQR
Sequence of UniProt Q14680 (whole entry, looked up): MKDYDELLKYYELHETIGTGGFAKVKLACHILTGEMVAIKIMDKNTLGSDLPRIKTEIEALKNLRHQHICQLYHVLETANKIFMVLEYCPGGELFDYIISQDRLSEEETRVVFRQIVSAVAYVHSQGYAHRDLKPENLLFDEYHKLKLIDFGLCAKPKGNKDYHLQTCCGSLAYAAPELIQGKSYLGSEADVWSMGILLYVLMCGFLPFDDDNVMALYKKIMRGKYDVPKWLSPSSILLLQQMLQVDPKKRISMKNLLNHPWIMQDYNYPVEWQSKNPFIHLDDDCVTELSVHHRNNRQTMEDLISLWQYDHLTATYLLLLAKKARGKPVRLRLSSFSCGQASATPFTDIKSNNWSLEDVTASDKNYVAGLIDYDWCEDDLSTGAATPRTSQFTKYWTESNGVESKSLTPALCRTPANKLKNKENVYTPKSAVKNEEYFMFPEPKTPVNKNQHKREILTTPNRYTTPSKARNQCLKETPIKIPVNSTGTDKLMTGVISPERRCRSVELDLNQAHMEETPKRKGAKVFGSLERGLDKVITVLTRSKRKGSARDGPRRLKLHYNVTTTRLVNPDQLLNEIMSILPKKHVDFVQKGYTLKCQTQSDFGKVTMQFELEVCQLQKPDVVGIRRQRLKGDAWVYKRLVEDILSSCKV
Sequence of UniProt P61075 (whole entry, looked up): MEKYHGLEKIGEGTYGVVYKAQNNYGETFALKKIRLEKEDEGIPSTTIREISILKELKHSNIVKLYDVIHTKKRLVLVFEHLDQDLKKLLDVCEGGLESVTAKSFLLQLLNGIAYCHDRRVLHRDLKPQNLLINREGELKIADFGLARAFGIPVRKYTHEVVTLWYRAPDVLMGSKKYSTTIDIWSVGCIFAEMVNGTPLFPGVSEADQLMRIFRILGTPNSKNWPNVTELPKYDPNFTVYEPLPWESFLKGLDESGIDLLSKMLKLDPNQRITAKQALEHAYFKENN

Study 1 — observed: enzyme activity; mode: inhibitor; concentration: 0.5 µM; reference: control
Target: Serine/threonine-protein kinase BRSK2 (BRSK2, Homo sapiens, UniProt Q8IWQ3)
Sequence of UniProt Q8IWQ3 (whole entry, looked up): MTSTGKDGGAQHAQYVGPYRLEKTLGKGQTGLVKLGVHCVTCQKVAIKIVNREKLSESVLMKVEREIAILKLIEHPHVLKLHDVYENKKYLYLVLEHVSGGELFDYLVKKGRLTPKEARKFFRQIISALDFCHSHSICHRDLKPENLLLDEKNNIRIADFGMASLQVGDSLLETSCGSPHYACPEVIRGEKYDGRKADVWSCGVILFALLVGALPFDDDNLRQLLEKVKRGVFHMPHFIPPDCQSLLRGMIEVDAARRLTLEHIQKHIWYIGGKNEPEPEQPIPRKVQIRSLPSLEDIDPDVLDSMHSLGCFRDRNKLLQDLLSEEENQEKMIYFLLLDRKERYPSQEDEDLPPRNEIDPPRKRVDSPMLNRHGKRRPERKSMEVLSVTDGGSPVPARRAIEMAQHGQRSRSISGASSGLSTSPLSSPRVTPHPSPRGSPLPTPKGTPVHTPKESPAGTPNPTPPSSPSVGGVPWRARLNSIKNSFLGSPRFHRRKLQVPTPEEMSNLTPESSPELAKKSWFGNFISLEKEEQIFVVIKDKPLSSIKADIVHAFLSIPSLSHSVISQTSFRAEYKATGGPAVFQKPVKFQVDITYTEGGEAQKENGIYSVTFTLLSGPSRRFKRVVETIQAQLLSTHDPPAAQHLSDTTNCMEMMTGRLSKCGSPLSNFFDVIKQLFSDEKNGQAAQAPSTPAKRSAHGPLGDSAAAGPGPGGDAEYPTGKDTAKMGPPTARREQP
Compound | remaining activity [%]
Cc1ccc(NC(=O)c2ccc(CN3CCN(C)CC3)cc2)cc1Nc1nc(-c2cccnc2)cs1 | 99.9
O=c1c2ccccc2[nH]c(=S)n1CCN1CCC(=C(c2ccc(F)cc2)c2ccc(F)cc2)CC1 | 99.8
CCOC(=O)c1c(C)[nH]c(/C=C2\C(=O)Nc3ccccc32)c1C | 98.7
Nc1[nH]nc2nc3ccccc3nc12 | 96.5
COc1cc2nccc(Oc3ccc(NC(=S)NC(=O)c4ccccc4C)cc3)c2cc1OC | 93
COc1ccc(CNC(=O)Nc2ncc([N+](=O)[O-])s2)cc1 | 93.1
Cc1cccc(-c2[nH]c(C(C)(C)C)nc2-c2ccc3c(c2)OCO3)n1 | 99.3
O=S(=O)(c1cccc2cnccc12)N1CCCNCC1 | 91.7
O=C1NC(=O)C(c2cn(CCCn3ccnc3)c3ccccc23)=C1Nc1ccccc1 | 93.6
Cn1sc(=O)n(Cc2ccccc2)c1=O | 99.4
O=C(Nc1cccc(Nc2cc(Nc3cccc(C(F)(F)F)c3)ncn2)c1)C1CC1 | 95.8
Nc1ccc2ncnc(NCCc3ccc(Oc4ccccc4)cc3)c2c1 | 102
COc1ccc(C(=O)Nc2sc3c(c2C(N)=O)CCCC3)cc1OC | 97.9
O=C(CCCc1ccc(-c2ccccc2F)cc1)Nc1ccc(O)cc1 | 99.2
Nc1ncnc2n[nH]c(Nc3ccc(F)cc3)c12 | 60.6

Study 2 — observed: enzyme activity; mode: inhibitor; concentration: 10 µM
Target: Calcium/calmodulin-dependent protein kinase type II subunit alpha (CAMK2A, Homo sapiens, UniProt Q9UQM7)
Sequence of UniProt Q9UQM7 (whole entry, looked up): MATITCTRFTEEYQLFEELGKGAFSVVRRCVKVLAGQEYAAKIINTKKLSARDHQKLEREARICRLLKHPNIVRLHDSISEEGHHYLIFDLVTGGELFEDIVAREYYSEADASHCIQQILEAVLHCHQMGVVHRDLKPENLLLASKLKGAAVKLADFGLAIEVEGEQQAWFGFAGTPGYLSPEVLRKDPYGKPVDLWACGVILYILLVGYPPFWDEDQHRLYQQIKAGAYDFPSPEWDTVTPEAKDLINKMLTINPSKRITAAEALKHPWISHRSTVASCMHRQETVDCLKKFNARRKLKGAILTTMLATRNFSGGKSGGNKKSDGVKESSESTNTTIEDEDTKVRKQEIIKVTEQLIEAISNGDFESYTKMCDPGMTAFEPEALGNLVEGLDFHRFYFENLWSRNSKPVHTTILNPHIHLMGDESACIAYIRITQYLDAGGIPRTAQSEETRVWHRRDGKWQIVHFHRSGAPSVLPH
Compound | inhibition
COc1c(O)cc2oc(-c3ccccc3)cc(=O)c2c1O | -7%
Cc1cc2cc3c(C)cc(=O)oc3c(C)c2o1 | -6%
C[C@]1(O)C[C@@H](O)[C@@H]2C=CO[C@@H](O[C@@H]3O[C@H](CO)[C@@H](O)[C@H](O)[C@H]3O)[C@@H]21 | -36%
Cc1cccc(C)c1NC(=O)C(C)N (stereo not drawn) | -8%
CC(=O)O[C@H]1CC[C@]2(C)C3=C(CC[C@H]2C1(C)C)[C@]1(C)CC[C@H]([C@@H](CCC=C(C)C)C(=O)O)[C@@]1(C)CC3 | 4%
CCCN1C[C@H](C)[C@@H](O)[C@](C)(O)[C@@H](CC)OC(=O)[C@H](C)[C@@H](O[C@H]2C[C@@](C)(OC)[C@@H](O)[C@H](C)O2)[C@H](C)[C@@H](O[C@@H]2O[C@H](C)C[C@H](N(C)C)[C@H]2O)[C@](C)(O)C[C@H]1C | -2%
NCC(c1ccc(O)cc1)C1(O)CCCCC1 (stereo not drawn) | 2%
c1ccc(CSSCc2ccccc2)cc1 | -19%
C[C@@H]1O[C@@H](O[C@H]2[C@H](Oc3cc(O)c4c(=O)cc(-c5ccc(O)cc5)oc4c3)O[C@H](CO[C@@H]3O[C@H](CO)[C@@H](O)[C@H](O)[C@H]3O)[C@@H](O)[C@@H]2O)[C@H](O)[C@H](O)[C@H]1O | -24%

Study 3 — observed: AlphaScreen signal; technique: AlphaScreen counter screen; matrix: His6 peptide without bromodomain; concentration: 50 µM; notes: assay interference check
Compound | inhibition
N#CC1(c2ccc(NC(=O)c3cccnc3NCc3ccncc3)cc2)CCCC1 | 13.9%
CC(C)n1cnc2c(NCc3ccccc3)nc(NCCCO)nc21 | 19.4%
CC(C)[C@H](CO)Nc1nc(Nc2cc(N)cc(Cl)c2)c2ncn(C(C)C)c2n1 | 65.8%
CCOC(=O)c1cccc(Nc2nc(N)nc3[nH]cnc23)c1 | 9.1%
O=C1Nc2ccc(S(=O)(=O)O)cc2C1=C1Nc2ccccc2C1=NO | 76.2%
CN1CCN(c2nc(C3=C(c4c[nH]c5ccccc45)C(=O)NC3=O)c3ccccc3n2)CC1 | 78.1%
Cc1cccc(-c2nc(C(C)(C)C)[nH]c2-c2ccc3c(c2)OCO3)n1 | 33.9%
O=C1NC(=O)C(=Cc2ccc(-c3ccccc3[N+](=O)[O-])o2)S1 | 41.5%
O=C(O)COc1ccccc1C=NNC(=O)c1cc(-c2ccc3c4c(cccc24)CC3)n[nH]1 | 16.8%
O=C(CSc1ccc2nnc(-c3cccc(F)c3)n2n1)NCc1ccc(F)cc1 | 8.45%
CC[C@H](CO)Nc1nc(NCc2ccccc2)c2ncn(C(C)C)c2n1 | 16%

Study 4 — SMILES: O=C(Nc1ccccc1)Nc1cccc(Oc2ccc3nccn3n2)c1; concentration: 1 µM
target | technique | notes | reference | remaining binding [%]
MAP3K14 (Homo sapiens, UniProt Q99558) | competitive binding | NIK |  | 93
FGFR3 (Homo sapiens, UniProt P22607) | competitive binding panel |  | vehicle | 100
MAP4K2 (Homo sapiens, UniProt Q12851) | competitive binding panel |  | vehicle | 100
CRK2 (Plasmodium falciparum, UniProt P61075) | competitive binding, scanMAX | Plasmodium falciparum PK5, 1000 nM |  | 77
CDK2 (Homo sapiens, UniProt P24941) | competitive binding panel |  | vehicle | 100
MELK (Homo sapiens, UniProt Q14680) | competitive binding panel |  | vehicle | 100
ABL2 (Homo sapiens, UniProt P42684) | competitive binding panel |  | vehicle | 69
